Measurements of several laboratories.
Numbered parts are unrelated; each lists some results of a single study.

Series 1
Target: Interferon regulatory factor 7, full length, phosphomimetic (IRF7, Homo sapiens, UniProt Q92985, residues 1-503, S101K/S471D/S472D/S475D/S476D/S477D/S483D/S484D/S487D)
Method: protein-binding microarray
Molecule type: double-stranded DNA, one strand shown
Medium: in vitro
Tested at: 250 nM
Setting: 60-bp whole probe
With: salmon DNA 0.4 mg/ml
Relative to: random background probes
Direction: higher = stronger binding
All sequences stand within: GCCTAGCAC … GTCTTGATTCGCTTGACGCTGCTG
Construct (chain): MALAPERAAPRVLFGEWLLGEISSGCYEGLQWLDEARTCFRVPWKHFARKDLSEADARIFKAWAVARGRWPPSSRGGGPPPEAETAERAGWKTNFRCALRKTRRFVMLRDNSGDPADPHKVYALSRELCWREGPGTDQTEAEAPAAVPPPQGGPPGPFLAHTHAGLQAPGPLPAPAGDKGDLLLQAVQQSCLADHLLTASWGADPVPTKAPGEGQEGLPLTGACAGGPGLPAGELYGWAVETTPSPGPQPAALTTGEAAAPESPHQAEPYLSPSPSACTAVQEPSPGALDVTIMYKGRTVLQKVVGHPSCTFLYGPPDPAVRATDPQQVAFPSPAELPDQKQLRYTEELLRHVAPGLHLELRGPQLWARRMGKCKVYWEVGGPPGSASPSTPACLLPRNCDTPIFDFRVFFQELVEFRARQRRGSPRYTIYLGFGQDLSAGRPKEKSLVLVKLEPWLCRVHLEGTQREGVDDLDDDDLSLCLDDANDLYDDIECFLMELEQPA
Oligonucleotide | log fluorescence [z-score]
ATATTGATGGCTCTCTGGACGTGCTAG | -0.16
GACGGTATCGGGATTGGGGACGTGCTA | 0.228
GACGGTCTCAGTATCGGGACGTGCTAG | 0.445
TTAGAACTGGGGCTTCGATTAGTGCTA | -0.15
TTAGATCTCCGTTTCGATTAGTGCTAG | 3.51
GCCGATCTCAGTCTCGAGACGTGCTAG | 0.503
AACATACTGATTTCCACTTTGTGCTAG | 1.23
TCATTTTCATGCTCTTATACTGTGCTA | 1.29
TCAGATTTCCCCACCATACTGTGCTAG | 1.05
TTAGATTTCGGCTTTCGATTAGTGCTA | 1.79
GACGGTTTCGTACTGGGGACGTGCTAG | 4.47
TTAGATATCGTGTTTCGATTAGTGCTA | 2.92
TCAAATTTTTGCATCGTACTGTGCTAG | -0.15
TCAATCGTAAGCAAAAAACTGTGCTAG | -0.159
GACGATTTAAGTTCCGAGACGTGCTAG | 0.454
GACGGTTTCCTACGGCTGACGTGCTAG | 0.985
TTAGGCCTGGGTATCGGTTAGTGCTAG | 1.06
CTCTGGGGAGATCAGCGCATGTGCTAG | -1.44
TTGGAACTGGGGACTGGATTAGTGCTA | -0.549
GCCGGACTGCTTATCCTGACGTGCTAG | -0.446
TCATTTACCCATCTCCAACTGTGCTAG | 2.01
GACGGTTCCCTTTTCGTGACGTGCTAG | 2.93
TCAGGAAACTTAAACTAGACTGTGCTA | -0.253
TTAGATCTCAGTTTAGATTAGTGCTAG | 0.882
GACGGTATCCTTTTCCTTACGTGCTAG | 1.26

Series 2
Target: Phosphate system positive regulatory protein PHO4, full length, GST-tagged (PHO4, Saccharomyces cerevisiae, UniProt P07270, residues 1-312)
Method: competition protein-binding microarray
Molecule type: double-stranded DNA, one strand shown
Medium: in vitro
Tested at: 2 µM
Setting: whole 60-bp probe, lowest competitor level
With: Cbf1 competitor, 0.05 µM
Direction: higher = stronger binding
All sequences stand within: … GTCTTGATTCGCTTGACGCTGCTG
Residues (chain): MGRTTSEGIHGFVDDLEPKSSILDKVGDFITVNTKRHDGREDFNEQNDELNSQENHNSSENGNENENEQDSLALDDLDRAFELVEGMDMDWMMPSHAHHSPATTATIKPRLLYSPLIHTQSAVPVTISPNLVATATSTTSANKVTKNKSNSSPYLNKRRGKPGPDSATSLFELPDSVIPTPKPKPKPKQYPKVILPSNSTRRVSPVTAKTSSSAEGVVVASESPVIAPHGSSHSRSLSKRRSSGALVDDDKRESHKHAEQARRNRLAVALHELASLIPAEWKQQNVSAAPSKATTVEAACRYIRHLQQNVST
Oligonucleotide | fluorescence intensity
CAACCGCATCGGCTCAACCTGATCTTGCAATTAGCA | 2780 a.u.
AGATGAGCGCTCAATCTCGTGAAGGCTATGTGTAGT | 5950 a.u.
CTACGCTATGGAAACCGCGTGCCAGACTGGTAGAGT | 12700 a.u.
GTCTTGTCTCATTGAGGTGTGGGTGTCCCCACTTCA | 6220 a.u.
GGTCTTCTTGTTTTTCACCTGCTCGACAGCTCTTTG | 3960 a.u.
AGAAGGAAGTAACTGCAGGTGAAGCACAGGACGAAG | 5640 a.u.
CTAACGAAGGTTTTTCACGTGCACTACAAGCCAAGT | 12500 a.u.
AAAGCGGTAATTTGTCACGATACTTCACATATCTAT | 5260 a.u.
TAATTTGTAGTATTGAACGTGACGGGAAACAAAAAA | 8260 a.u.
TCTTCGTTGTCTACCCACGCTCTTCCGGACCCTCTT | 8520 a.u.
TTAGTCTGTAACCAACACGTGCAAAGGGTAAATAGA | 19000 a.u.
AAAGCGGTAATTTGTGGAGTGGGTGCAGATATCTAT | 4410 a.u.
TGCTCCACCGGCCAACACGTGGAAGTCGCAATTATA | 15700 a.u.
CTTAATTGCAAGATTCAGCTGACTGCATATGGGCAG | 4440 a.u.
GCATTTTTCGGGGCGCCCGTGCAAAAACTAACTCCG | 7330 a.u.
CATACCCAACCTTGTATGGTGGGTGAAGATATTTGT | 4210 a.u.
AAGGGAAAAAGCTTTGGCGTGCTTTACGATATGGCT | 6370 a.u.
GCACCGTAATCCATTAATGTGTCGCAGGCTTTCACC | 3660 a.u.
GCTCCGTTATGTTCACTCGTGTTTCTGATACTGGAT | 8480 a.u.
TATCGAAAAGGTCCTCACGTTATAAGGCTAACAAAT | 6410 a.u.
CTTTCCCGATCTTGTCACTGGACTTTAGCACATTTG | 3660 a.u.
CAGATGAACTTCTTGAACGTGGACGCCGTATGCCAT | 9560 a.u.

Series 3
Target: RNA binding protein fox-1 homolog 2, RRM domain, GST-SBP tag (RBFOX2, Homo sapiens, UniProt O43251-10, residues 100-194)
Method: RNA Bind-n-Seq
Molecule type: RNA
Medium: in vitro
Tested at: 365 nM
Setting: natural RNA segment, single round, ends assumed
Relative to: no-protein control
Direction: higher = stronger binding
All sequences stand within: GGGAGUUCUACAGUCCGACGAUC … UGGAAUUCUCGGGUGCCAA
Target sequence (chain): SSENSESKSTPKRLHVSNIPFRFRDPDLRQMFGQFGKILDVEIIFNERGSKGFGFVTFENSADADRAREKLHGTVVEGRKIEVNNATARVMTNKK
Oligonucleotide | RBNS enrichment (R)
CUUCGUUGUAAUGGUUUUGCUGUAAAAAAUGUUUCCAACUCCGCUGAAAUGUUGCUGAAAAGCAUGGUGCUGGUAACAGUUCAACAAUCCGUGGCUGCUCAUUCUUGCCU | 2.33
AUGUCCUUUGGAAACCUGGUCACCUGGUGAAAACCCUUGGGAUUCUUCCCUGGGCAUGACUGAUGACAAUUUCCAUUUCAUCAGUUUGUUUUGUUUUCCUUUUUCUUUAA | 0.379
CUUCUGCCUCCCAAUCAAGGAAGCUCCAUGCUCAGGCUCUCAGCUCUCGGGCCAGUGCUCUGCUCUGUCCAGGGUAGGUAAUACUGGGAGACUCCUGUCUUUUACCCUCC | 0.285
UUUUCUGGGCAAAGCAUGGCCCCUUUUCCCCAGGACAAAGGGAACAGUUGGUGUCUGGGAAGGUAUUGAACGCUCCUCACCCUGUGCCCGAAGAGACCCGGAACCAAGAC | 0.379
UUUCUGGCUUUAGCUGCUAGUUUUCCCAAAUCUCAGUGCUUUCCCUUUUUGAACUUCCCUUCUAUUAAACUUAAAACAGAUGUCUUAAUUAAUCAGGCUGUCUUGGAAGG | 0.452
AACAUAUUUAAAGAAAUUGAUGGUGUUCAUCAAGCUGGGGCCUGUGGCAGUUGUUGCCUGAGCACCAAGUAACCCAAGCCACCUAUGUGACAACUUCUGGGCCCAGGAGU | 1.78
UCUCUACGAAUCUCAAUUCCAACUUCUCUGCAGAGUCUGUACAGUGAUUAAGCCAUGCCAGAUGGUCUUUGGUGCACACAGUUAUUUAAGAAUCCACUUCCACAGGUGGC | 0.308
GACGUCAGCCAUGUACAGGAUCCACAGGGGUGGUGUCAAAUGCUAUUGAAAUUGUGUUGAAUUGUAUGCUUUUUCACUUUUGAUAAAUAAACAUGUAAAAAUGUUUCAAA | 2.23
CAGGACAGAGAGAAGGUCUACUGUUCAUGGGGAUUAGGCUUAUAGGAAUGUUAGUACCAAAUUUCUACAUGUGAGCUUUGGGGGCCAGGUCCUAGAGAGCCCAAGUGGGA | 1.8
GUAAUGCAGGAUCAAGACCACCACUGCAUGUGUACUGAAAACUGCAGACUUCUGCCCGCUUGGGACAGAACAUUGCAUGUGAGGUGGGAUUAUCAAGUUUCAAAGACCUG | 5.76
GUGAUGAAUGUACUAUGUCUGAACAUAGAAACUCGGGCUUGAGUGAGAAGAGCUUGCACAGCCAACGAGACACAUUGCCUUCUGGAGCUGGGAGACAAAGGAGGAAUUUA | 3.89
CCAGUACUCCUGCUCUCCGGUGCCACCUCACCUUCUUUGGCUUCUUCCCUCUUGCCUCCUUCUGUUCUUUCUGCUCUCCCCUCUUUUCCCUCCUCCUCACUUCCCUCUGG | 1.13

Series 4
Target: Histone acetyltransferase KAT6A, both winged helices, GST fusion (KAT6A, Homo sapiens, UniProt Q92794, residues 1-181)
Method: protein binding microarray
Molecule type: double-stranded DNA, one strand shown
Medium: in vitro
Tested at: not given
Setting: 8-mer, flanks averaged, mean of 2 arrays, mostly near background
Relative to: not given
Direction: higher = stronger binding
Residues (chain): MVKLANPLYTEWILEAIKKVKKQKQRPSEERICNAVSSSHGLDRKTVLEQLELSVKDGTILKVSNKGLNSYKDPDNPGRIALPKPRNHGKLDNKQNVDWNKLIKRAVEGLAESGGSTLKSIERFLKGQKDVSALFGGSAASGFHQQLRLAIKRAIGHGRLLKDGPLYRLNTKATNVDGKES
Oligonucleotide | E-score
ACAAGGGT | 0.0751
CTCTCAAA | -0.136
GTCCAGTA | -0.146
TCCCGGCA | 0.276
ATGACTTG | -0.0176
GCAAATCC | 0.0267
ATTCTCAC | -0.107
ATTCGTGG | -0.138
TAGAGTAA | -0.0863
AGATTGGC | -0.134
CGTAGAGC | 0.0604
ACGGTCAG | 0.0938
TCCCGAGA | 0.127
GATCGCCC | 0.0345
CCAGGAAC | -0.03
AACCCATC | -0.163

For quick reference, copied from above (series 3):
Oligonucleotide | RBNS enrichment (R)
CUUCGUUGUAAUGGUUUUGCUGUAAAAAAUGUUUCCAACUCCGCUGAAAUGUUGCUGAAAAGCAUGGUGCUGGUAACAGUUCAACAAUCCGUGGCUGCUCAUUCUUGCCU | 2.33
AUGUCCUUUGGAAACCUGGUCACCUGGUGAAAACCCUUGGGAUUCUUCCCUGGGCAUGACUGAUGACAAUUUCCAUUUCAUCAGUUUGUUUUGUUUUCCUUUUUCUUUAA | 0.379
CUUCUGCCUCCCAAUCAAGGAAGCUCCAUGCUCAGGCUCUCAGCUCUCGGGCCAGUGCUCUGCUCUGUCCAGGGUAGGUAAUACUGGGAGACUCCUGUCUUUUACCCUCC | 0.285
UUUUCUGGGCAAAGCAUGGCCCCUUUUCCCCAGGACAAAGGGAACAGUUGGUGUCUGGGAAGGUAUUGAACGCUCCUCACCCUGUGCCCGAAGAGACCCGGAACCAAGAC | 0.379
UUUCUGGCUUUAGCUGCUAGUUUUCCCAAAUCUCAGUGCUUUCCCUUUUUGAACUUCCCUUCUAUUAAACUUAAAACAGAUGUCUUAAUUAAUCAGGCUGUCUUGGAAGG | 0.452
AACAUAUUUAAAGAAAUUGAUGGUGUUCAUCAAGCUGGGGCCUGUGGCAGUUGUUGCCUGAGCACCAAGUAACCCAAGCCACCUAUGUGACAACUUCUGGGCCCAGGAGU | 1.78
UCUCUACGAAUCUCAAUUCCAACUUCUCUGCAGAGUCUGUACAGUGAUUAAGCCAUGCCAGAUGGUCUUUGGUGCACACAGUUAUUUAAGAAUCCACUUCCACAGGUGGC | 0.308
GACGUCAGCCAUGUACAGGAUCCACAGGGGUGGUGUCAAAUGCUAUUGAAAUUGUGUUGAAUUGUAUGCUUUUUCACUUUUGAUAAAUAAACAUGUAAAAAUGUUUCAAA | 2.23
CAGGACAGAGAGAAGGUCUACUGUUCAUGGGGAUUAGGCUUAUAGGAAUGUUAGUACCAAAUUUCUACAUGUGAGCUUUGGGGGCCAGGUCCUAGAGAGCCCAAGUGGGA | 1.8
GUAAUGCAGGAUCAAGACCACCACUGCAUGUGUACUGAAAACUGCAGACUUCUGCCCGCUUGGGACAGAACAUUGCAUGUGAGGUGGGAUUAUCAAGUUUCAAAGACCUG | 5.76
GUGAUGAAUGUACUAUGUCUGAACAUAGAAACUCGGGCUUGAGUGAGAAGAGCUUGCACAGCCAACGAGACACAUUGCCUUCUGGAGCUGGGAGACAAAGGAGGAAUUUA | 3.89
CCAGUACUCCUGCUCUCCGGUGCCACCUCACCUUCUUUGGCUUCUUCCCUCUUGCCUCCUUCUGUUCUUUCUGCUCUCCCCUCUUUUCCCUCCUCCUCACUUCCCUCUGG | 1.13
